Measurements collected from several papers.
Parts stem from different laboratories: compare values within a part only. “And” joins repeats or separate records; there may be more than shown. pIC50: −log10 of the molar value.

Series 1 — effect on: kinase activity; mode: inhibitor; technique: ADP-Glo; tested at: 0.0009 µM
Target: Cyclin-dependent kinase 12, with cyclin K (CDK12, Homo sapiens, UniProt Q9NYV4)
Chain of UniProt Q9NYV4 (whole entry, looked up): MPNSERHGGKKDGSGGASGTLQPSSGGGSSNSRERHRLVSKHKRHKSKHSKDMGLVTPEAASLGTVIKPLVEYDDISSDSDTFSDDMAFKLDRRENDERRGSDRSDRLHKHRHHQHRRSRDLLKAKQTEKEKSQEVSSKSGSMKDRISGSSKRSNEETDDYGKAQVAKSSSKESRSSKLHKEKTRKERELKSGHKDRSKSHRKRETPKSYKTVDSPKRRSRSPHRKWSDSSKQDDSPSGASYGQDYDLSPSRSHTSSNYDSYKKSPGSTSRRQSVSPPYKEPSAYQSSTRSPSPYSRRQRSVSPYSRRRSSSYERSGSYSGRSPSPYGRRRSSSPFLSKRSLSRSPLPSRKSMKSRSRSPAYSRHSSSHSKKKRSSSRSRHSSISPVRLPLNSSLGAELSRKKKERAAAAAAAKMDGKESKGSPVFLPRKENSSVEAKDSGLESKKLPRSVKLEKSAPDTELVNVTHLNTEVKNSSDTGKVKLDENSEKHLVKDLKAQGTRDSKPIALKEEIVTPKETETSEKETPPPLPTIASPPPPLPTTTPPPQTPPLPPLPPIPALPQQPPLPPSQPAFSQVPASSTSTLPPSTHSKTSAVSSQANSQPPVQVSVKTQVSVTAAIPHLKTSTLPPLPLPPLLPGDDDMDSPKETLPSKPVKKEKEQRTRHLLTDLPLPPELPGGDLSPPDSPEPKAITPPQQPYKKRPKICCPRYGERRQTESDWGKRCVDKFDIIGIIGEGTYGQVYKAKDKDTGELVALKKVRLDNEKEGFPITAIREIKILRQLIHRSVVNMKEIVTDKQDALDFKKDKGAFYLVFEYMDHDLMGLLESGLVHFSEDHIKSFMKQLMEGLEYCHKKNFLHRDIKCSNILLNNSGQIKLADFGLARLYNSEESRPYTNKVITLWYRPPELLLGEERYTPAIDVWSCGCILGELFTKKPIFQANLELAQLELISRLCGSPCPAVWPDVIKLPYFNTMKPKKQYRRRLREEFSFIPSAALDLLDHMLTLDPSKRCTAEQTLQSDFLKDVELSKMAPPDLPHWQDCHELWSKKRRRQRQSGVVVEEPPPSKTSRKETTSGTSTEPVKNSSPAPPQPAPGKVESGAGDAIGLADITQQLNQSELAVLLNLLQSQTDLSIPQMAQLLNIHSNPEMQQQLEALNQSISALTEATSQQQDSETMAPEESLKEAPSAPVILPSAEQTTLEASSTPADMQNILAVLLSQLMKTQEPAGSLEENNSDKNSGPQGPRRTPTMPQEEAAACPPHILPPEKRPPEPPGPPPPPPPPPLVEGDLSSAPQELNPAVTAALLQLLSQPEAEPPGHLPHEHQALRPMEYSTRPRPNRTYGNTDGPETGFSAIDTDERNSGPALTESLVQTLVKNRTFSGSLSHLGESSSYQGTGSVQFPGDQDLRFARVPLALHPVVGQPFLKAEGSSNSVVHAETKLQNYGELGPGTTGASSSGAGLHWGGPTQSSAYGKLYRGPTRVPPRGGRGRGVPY
| Structure (SMILES) | inhibition [%] |
| --- | --- |
| CCCCOc1nc(NCc2nc3cc(Cl)c(Cl)cc3[nH]2)c2ncn(CC)c2n1 | 12 |
| CCn1cnc2c(NCc3nc4cc(Cl)c(Cl)cc4[nH]3)nc(N3CCN(S(C)(=O)=O)CC3)nc21 | -5.5 |
| CCn1cnc2c(NCc3nc4ccc(F)c(F)c4[nH]3)nc(N3CCn4ncnc4C3)nc21 | 12.6 |
| CCn1cnc2c(NCc3nc4cc(Cl)c(Cl)cc4[nH]3)nc(N3CCC(NC(C)=O)CC3)nc21 | -6.5 |
| CCn1cnc2c(NCc3nc4cc(F)c(F)cc4[nH]3)nc(N3CCn4ncnc4C3)nc21 | 10.9 |
| CCn1cnc2c(NCc3nc4cc(Cl)c(Cl)cc4[nH]3)nc(N3CCN(C(=O)c4ccccc4)CC3)nc21 | -18.1 |
| Cn1cc(-n2cnc3c(NCc4nc5cc(Cl)c(Cl)cc5[nH]4)nc(N4CCNCC4)nc32)cn1 | -6.4 |
| CCn1cnc2c(NCc3nc4cc(Cl)c(Cl)cc4[nH]3)nc(N3CCN(C(=O)CNC(C)=O)CC3)nc21 | -5 |

Series 2 — host: Crbn I391V mouse, MC-38 tumour
SMILES: Cn1cc(-c2cccc(CN3CCC4(CC3)COc3c4ccc4c3CN([C@H]3CCC(=O)NC3=O)C4=O)c2)cn1
| route | dose | time | notes | added | tumour volume |
| --- | --- | --- | --- | --- | --- |
| oral | 30 mg/kg once daily | day 1 |  |  | 89.1 mm3 and 78.8 mm3 and 71.2 mm3 and 87.5 mm3 and 107 mm3 |
|  | 30 mg/kg | day 46 |  | anti-LAG3 antibody 10 mg/kg weekly | 912 mm3 |
|  | 30 mg/kg | day 8 |  | anti-LAG3 antibody 10 mg/kg weekly | 248 mm3 and 614 mm3 and 452 mm3 and 596 mm3 and 169 mm3 |
|  | 30 mg/kg | day 4 |  | anti-LAG3 antibody 10 mg/kg weekly | 198 mm3 and 105 mm3 and 192 mm3 and 117 mm3 |
| oral | 30 mg/kg once daily | day 18 |  |  | 27 mm3 and 472 mm3 and 161 mm3 and 436 mm3 and 898 mm3 |
| oral | 30 mg/kg once daily | day 22 |  |  | 45.6 mm3 and 531 mm3 and 81.5 mm3 and 16.7 mm3 and 196 mm3 |
| oral, daily | 30 mg/kg | day 12 | anti-PD1 combination study |  | 500 mm3 and 471 mm3 and 692 mm3 and 260 mm3 and 216 mm3 |
| oral, daily | 30 mg/kg | day 22 | anti-PD1 combination study |  | 634 mm3 and 1320 mm3 and 2010 mm3 and 452 mm3 |
| oral, daily | 30 mg/kg | day 28 | anti-PD1 combination study |  | 1690 mm3 and 701 mm3 and 819 mm3 and 1620 mm3 and 976 mm3 |
| oral, daily | 30 mg/kg | day 25 | anti-PD1 combination study |  | 2010 mm3 and 2040 mm3 and 1120 mm3 and 417 mm3 and 519 mm3 and 1170 mm3 and 573 mm3 |
|  | 30 mg/kg | day 6 |  | anti-LAG3 antibody 10 mg/kg weekly | 106 mm3 and 563 mm3 and 172 mm3 and 434 mm3 and 169 mm3 |
| oral | 30 mg/kg once daily | day 14 |  |  | 87.7 mm3 and 42.4 mm3 and 48.1 mm3 and 159 mm3 and 500 mm3 |
|  | 30 mg/kg | day 27 |  | anti-LAG3 antibody 10 mg/kg weekly | 691 mm3 and 1760 mm3 and 79.8 mm3 and 1470 mm3 and 596 mm3 |
|  | 30 mg/kg | day 17 |  | anti-LAG3 antibody 10 mg/kg weekly | 1120 mm3 and 230 mm3 and 262 mm3 and 962 mm3 and 849 mm3 and 333 mm3 and 45.9 mm3 and 552 mm3 |

Series 3 — technique: von Frey test
SMILES: COc1cc(C(=O)OCCCN2CCCN(CCCOC(=O)c3cc(OC)c(OC)c(OCc4ccc([N+](=O)[O-])cc4)c3)CC2)cc(OC)c1OC
| effect on | host | route | dose | time | notes | paw withdrawal threshold |
| --- | --- | --- | --- | --- | --- | --- |
| mechanical pain | mouse, STZ diabetic neuropathy | intravenous | 30 mg/kg | 3 h post-dose | third injection | 0.4 g and 0.98 g and 0.51 g and 0.44 g |
| mechanical pain | mouse, STZ diabetic neuropathy | intravenous | 30 mg/kg | 1 h post-dose | third injection | 0.51 g and 0.98 g and 0.22 g |
|  | mouse, CFA inflammatory pain | subcutaneous | 10 mg/kg | 24 h post-dose | second injection, day 3 | 0.23 g and 0.32 g and 0.29 g |
|  | mouse, CFA inflammatory pain | intravenous | dose not given | baseline before CFA |  | 1.56 g and 1.3 g and 0.98 g and 0.75 g |
| mechanical pain | mouse, STZ diabetic neuropathy | intravenous | 30 mg/kg | 24 h post-dose | third injection | 0.51 g and 0.32 g and 0.4 g |
|  | mouse, CFA inflammatory pain | subcutaneous | 10 mg/kg | 5 h post-dose | second injection, day 3 | 0.13 g and 0.23 g and 0.29 g and 0.32 g |
|  | mouse, CFA inflammatory pain | intravenous | dose not given | 1 h post-dose | third injection, day 5 | 0.65 g and 0.75 g and 0.59 g and 0.51 g |
|  | mouse, CFA inflammatory pain | subcutaneous | 10 mg/kg | 3 h post-dose | third injection, day 5 | 0.65 g and 0.51 g and 0.29 g and 0.4 g |

Other studies, line by line
| SMILES | target or system | test | system | conditions | how to read | measurement | value |
| --- | --- | --- | --- | --- | --- | --- | --- |
| CC(C)NC(=O)N1CCC(NC2=Nc3cc(F)ccc3N(CC(F)F)c3ccc(Cl)cc32)C1 (stereo in doubt) | sample BA colorectal tumour organoid |  |  | 0.1 µM | relative to: DMSO | viability | 99.8% |
| CC(C)C[C@@H]1NC(=O)[C@@H](N(C)C(=O)[C@@H](NC(=O)[C@@H]2C[C@@H](F)CN2C(=O)C2(C(F)(F)F)CC(F)(F)C2)C2CC2)CCCCCCCN(C)C(=O)[C@H](Cc2cc(Cl)cnc2OC2CC2)N(C)C1=O |  | immunohistochemistry | mice, sample A PDX, tumour | oral, 100 mg/kg three times daily for 4 d, 8 h after last dose |  | cleaved caspase-3 positive cells | 6.01% and 2.23% and 4.17% |
| CO[C@H]1CC[C@H](CNc2ccc(S(=O)(=O)NC(=O)c3ccc(N4CCN(CC5=C(c6ccc(Cl)cc6)CC(C)(C)CC5)CC4)cc3Oc3cnc4[nH]ccc4c3)cc2[N+](=O)[O-])CC1 | normal colon organoid sample F |  |  | 4 days |  | pIC50 | 5.18 |
| C=CCN1C(=O)C(O)(C(=O)O)Oc2cc(F)ccc21 (stereo not shown) | Glycine max | fresh weight |  | soil surface spray, 150 g ai/ha, 21 days, pre-emergence crop safety |  | inhibition | 7.7% and 8.2% and 8.7% |

Repeated from above (series 2):
| route | dose | time | notes | added | tumour volume |
| --- | --- | --- | --- | --- | --- |
| oral, daily | 30 mg/kg | day 28 | anti-PD1 combination study |  | 1690 mm3 and 701 mm3 and 819 mm3 and 1620 mm3 and 976 mm3 |
| oral | 30 mg/kg once daily | day 1 |  |  | 89.1 mm3 and 78.8 mm3 and 71.2 mm3 and 87.5 mm3 and 107 mm3 |
|  | 30 mg/kg | day 46 |  | anti-LAG3 antibody 10 mg/kg weekly | 912 mm3 |
| oral | 30 mg/kg once daily | day 18 |  |  | 27 mm3 and 472 mm3 and 161 mm3 and 436 mm3 and 898 mm3 |
|  | 30 mg/kg | day 6 |  | anti-LAG3 antibody 10 mg/kg weekly | 106 mm3 and 563 mm3 and 172 mm3 and 434 mm3 and 169 mm3 |
